Measurements of several laboratories.
Each line is one published result; not all experiments were run side by side. ± marks the error that the study gave.
MAL12: Alpha-glucosidase MAL12 (MAL12, Saccharomyces cerevisiae S288c, UniProt P53341)
MMP1: Interstitial collagenase (MMP1, Homo sapiens, UniProt P03956)
HDAC1: Histone deacetylase 1 (HDAC1, Homo sapiens, UniProt Q13547)

O=C1c2ccc(O)c(O)c2C(=O)N1Cc1cccc(Cl)c1F
IC50 (Gag-Pol polyprotein, integrase (gag-pol, Human immunodeficiency virus 1, UniProt P12497); 3'-processing, inhibitor, gel-based; recombinant wild-type integrase): 29 ± 4.3 µM

CC[C@@H]1NC(=O)[C@@H]2CSSC[C@@H]3NC(=O)[C@H](CCCCN)NC(=O)[C@@H]4CSSC[C@H](NC(=O)[C@H](CC(=O)O)NC(=O)[C@H](CCCCN)NC(=O)[C@@H]5CCCN5C(=O)[C@H]([C@@H](C)O)NC(=O)[C@H](CCCNC(=N)N)NC(=O)[C@@H](NC(=O)[C@H](CO)NC(=O)[C@H](C)N)CSSC[C@H](NC(=O)[C@H](CCCCN)NC(=O)CNC(=O)[C@H](Cc5ccc(O)cc5)NC(=O)[C@@H]5CCCN5C(=O)[C@H](CSSC[C@@H](C(N)=O)NC(=O)[C@H](CCCNC(=N)N)NC(=O)[C@H](CC(N)=O)NC3=O)NC(=O)CNC(=O)[C@H]([C@@H](C)O)NC(=O)[C@H](CCC(=O)O)NC(=O)[C@H](CCCCN)NC1=O)C(=O)N[C@@H](CCSC)C(=O)N[C@@H](CC(N)=O)C(=O)N[C@@H](CCCNC(=N)N)C(=O)N[C@@H](CCCCN)C(=O)N4)C(=O)N[C@@H](C)C(=O)N[C@@H](CC(=O)O)C(=O)N1CCC[C@H]1C(=O)N2
IC50 (Kcna3 (Mus musculus, UniProt P16390); ion current, inhibitor, patch clamp): ~5e-05 µM

Nc1ncnc2c1ncn2[C@@H]1O[C@H](CSCCNC(=O)NCC2CCCCC2)[C@@H](O)[C@H]1O
IC50 (RNA demethylase ALKBH5 (Homo sapiens, UniProt Q6P6C2); RNA demethylase activity, inhibitor): > 50 µM

CNC(=O)C1OC(n2cnc3c(NCc4cccc(I)c4)ncnc32)C(O)C1O (centres unmarked)
IC50 (SLCO1B1 (Homo sapiens, UniProt Q9Y6L6); transport, inhibitor; 10 (unit not given), pre-incubation, with: estrone-3-sulfate): 17 ± 0.1 µM

COC(=O)c1ccc(NC(=O)c2cccc(CC3CCCCC3)n2)c(Cc2ccccc2)c1
IC50 (Capsid scaffolding protein, protease domain (Human herpesvirus 8 type P, UniProt Q2HRB6); pH 8): no inhibition

F[P-](F)(F)(F)(F)F.OCP(CO)CO.OCP(CO)CO.OCP(CO)CO.OCP(CO)CO.[Cu+]
IC50 (PSMB6/PSMB5/PSMB7 (Homo sapiens, UniProt P28072+P28074+Q99436); trypsin-like activity; 26S proteasome from LoVo cells): 34 µM

NC1CCc2cc(O)c(O)cc2C1 (centres unmarked)
IC50 (Carbamate kinase (Giardia intestinalis, UniProt A8BB85); enzyme activity, ATP luminescence): 13 µM

CN(Cc1ccccc1)CP(C)(=O)O
IC50 (Urease (Canavalia ensiformis, UniProt P07374); inhibitor; pH 7): > 1000 µM

CC[C@H](C)[C@H](NC(=O)[C@H](CC(=O)O)NC(=O)[C@H](CC(C)C)NC(=O)[C@H](Cc1cnc[nH]1)NC(=O)[C@@H]1CSSC[C@H](N)C(=O)N[C@@H](CO)C(=O)N[C@H]2CSSC[C@H](NC(=O)[C@H](CCC(=O)O)NC(=O)[C@H](CCCCN)NC(=O)[C@H](CC(=O)O)NC(=O)[C@H](CC(C)C)NC(=O)[C@H](Cc3c[nH]c4ccccc34)NC(=O)[C@H](CO)NC(=O)[C@H](CO)NC2=O)C(=O)N[C@@H](C(C)C)C(=O)N[C@@H](Cc2ccc(O)cc2)C(=O)N[C@@H](Cc2ccccc2)C(=O)N1)C(=O)N[C@H](C(=O)N[C@@H](Cc1c[nH]c2ccccc12)C(=O)O)[C@@H](C)CC
IC50 (EDNRA (Homo sapiens, UniProt P25101); ligand displacement, radioligand): 0.000288 µM

Cc1cc(S(=O)(=O)Nc2ncccn2)c(F)cc1N(C)C1CCN([C@H](C)c2ccccc2)CC1
IC50 (SCN8A (Homo sapiens, UniProt Q9UQD0); use-dependent ion current block, inhibitor, patch clamp; held at V0.5, pulse 500): 0.197 µM

CSCC[C@H](N)C(=O)N[C@@H](CC(C)C)C(=O)N[C@@H](Cc1ccccc1)C(=O)N[C@@H](CO)C(=O)NCC(=O)N[C@@H](CCC(N)=O)C(=O)N[C@H](C(=O)N[C@@H](CC(C)C)C(=O)O)C(C)C
IC50 (ACE (Homo sapiens, UniProt P12821); enzyme activity, inhibitor, HPLC): 603 µM

N#Cc1ccc(-c2c[nH]c(CNC(=O)Nc3ncc(Sc4ccccn4)s3)n2)cc1
IC50 (enoyl-ACP reductase FabK (Clostridioides difficile, UniProt A0A031WIF2); enzyme activity, inhibitor, NADH fluorescence; with: 150 µM crotonyl-CoA): 7.35 µM

Nc1nc2c(c(=O)[nH]1)[n+](Cc1cccc(OS(=O)(=O)F)c1)cn2[C@@H]1O[C@H](COP(=O)(O)O)[C@@H](O)[C@H]1O
IC50 (NT5C3B (Homo sapiens, UniProt Q969T7); m7GMP dephosphorylation, inhibitor, malachite green; 1 h preincubation, pH 7.5, 30 °C, with: m7GMP 100 µM): 0.9 ± 0.3 µM

CCOC(=O)CC(NC(=O)Nc1ccc(NC(=O)NC(CC(=O)OCC)C2OC3OC(C)(C)OC3C2OCc2ccccc2)cc1)C1OC2OC(C)(C)OC2C1OCc1ccccc1 (centres unmarked)
IC50 (DNA ligase 1 (Homo sapiens, UniProt P18858); enzyme activity, inhibitor, radiometric): 94 µM

CC(=O)N[C@@H](CC(C)C)C(=O)N[C@@H](CCC(=O)O)C(=O)N[C@@H](CO)C(=O)N[C@@H](CC(=O)O)C(=O)CCl
IC50 (Caspase-4 (CASP4, Homo sapiens, UniProt P49662); enzyme activity, inhibitor, fluorescence): 59 µM

COc1c(C[C@@H](C)O)c2c3c(C[C@@H](C)O)c(OC)c(=O)c4c(O)cc5c(c6c(cc(O)c(c1=O)c62)OCO5)c43
IC50 (protein kinase C; enzyme activity, inhibitor; whole enzyme): 12 µM

Cc1cc(C)nc(Sc2nc3sccn3c2[N+](=O)[O-])n1
IC50 (Procathepsin L (CTSL, Homo sapiens, UniProt P07711); enzyme activity, inhibitor, FRET): 55.4 µM

O=C(Nc1ccccc1)c1ccccc1O
IC50 (HDAC5 (Homo sapiens, UniProt Q9UQL6); enzyme activity, inhibitor, fluorescence): > 10 µM

CCCCCCCCCCCCC(O)C1CCC(C(O)CCCCCCCCCCCCC2=CC(C)OC2=O)O1 (centres unmarked)
IC50 (MT-ND1/NDUFS2/NDUFS7, complex I (Bos taurus, UniProt P03887+P17694+P42026); enzyme activity, inhibitor): 5.5 µM

CSCC[C@H](NC(=O)[C@H](Cc1ccccc1)NC(=O)[C@H](Cc1c[nH]cn1)NC(=O)CNC(=O)[C@@H](NC(=O)[C@H](C)NC(=O)[C@H](Cc1c[nH]c2ccccc12)NC(=O)[C@H](CCC(N)=O)NC(=O)[C@@H]1CCC(=O)N1)C(C)C)C(N)=O
IC50 (NMBR (Homo sapiens, UniProt P28336); NMBR activity, cell-based): < 0.001 µM

CC[C@@H]1NC(=O)[C@H]([C@H](O)[C@H](C)Cc2nc3ccc(-c4nc5ccccc5s4)cc3[nH]2)N(C)C(=O)[C@H](C(C)C)N(C)C(=O)[C@H](CC(C)C)N(C)C(=O)[C@H](CC(C)C)N(C)C(=O)[C@@H](C)NC(=O)[C@H](C)NC(=O)[C@H](CC(C)C)N(C)C(=O)[C@H](C(C)C)NC(=O)[C@H](CC(C)C)N(C)C(=O)CN(C)C1=O
IC50 (PPIA/Calcineurin subunit B type 1/PPP3CA (Homo sapiens, UniProt P62937+P63098+Q08209); enzyme activity, inhibitor): > 10 µM

CCCC[C@H](NC(=O)[C@H](C)NC(=O)[C@H](CCC(=O)O)NC(=O)[C@H](Cc1ccccc1)NC[C@H](C)NC(=O)[C@@H](NC(=O)[C@@H](N)CCCNC(=N)N)C(C)C)C(=O)O
IC50 (Gag-Pol polyprotein, protease (gag-pol, Human immunodeficiency virus 1, UniProt P12497); enzyme activity, inhibitor, FRET; NL4-3 wild type): > 1 µM

C=CC1C(OC2OC(CO)C(O)C(O)C2O)OC=C2C(=O)OCCC21 (centres unmarked)
IC50 (MAL12; enzyme activity, inhibitor, absorbance): > 100 µM

CC(C)C[C@@H]1NC(=O)[C@H](CCCNC(=N)N)NC(=O)[C@H](CCCCN)NC(=O)[C@H](CC(=O)O)NC(=O)[C@H](CCCCN)NC(=O)[C@@H](CO)NC1=O
IC50 (MMP2 (Homo sapiens, UniProt P08253); enzyme activity, inhibitor, fluorescence): > 10 µM

CC(C)[C@H](NC(=O)c1ccc(CNc2nc3c(c(=O)[nH]2)CCC3)cc1)C(=O)NC1COC1
IC50 (MMP1; enzyme activity, inhibitor): > 5 µM

CC[C@H](C)[C@H](NC(=O)[C@H](Cc1c[nH]cn1)NC(=O)[C@H](CC(C)C)NC(=O)[C@H](Cc1ccc(O)cc1)NC(=O)[C@H](Cc1ccc(O)cc1)NC(=O)[C@H](Cc1ccccc1)NC(=O)[C@H](CC(=O)O)NC(=O)[C@H](CS)NC(=O)[C@@H](N)Cc1ccccc1)C(=O)O
IC50 (APOBEC3G (Homo sapiens, UniProt Q9HC16); deamination activity, inhibitor, PCR/StuI restriction; pH 7.4, 37 °C, with: ssDNA substrate 1 fmol/µL): > 100 µM

Cc1ccc2c(n1)c(-c1cccc(S(C)(=O)=O)c1)c(C)n2C/C(F)=C/CN
IC50 (LOXL2 (Homo sapiens, UniProt Q9Y4K0); enzyme activity, inhibitor, fluorescence; with preincubation): 0.01 µM

O=C(CS)NCCCCCNC(=O)c1ccccc1
IC50 (HDAC1; enzyme activity, inhibitor): 3.36 µM

COc1ccc(N=Nc2cccc(NC(=O)CCCCCCC(=O)NO)c2)cc1
IC50 (HDAC1; enzyme activity, inhibitor; cis isomer, irradiated): 0.047 ± 0.011 µM

Cc1cccc(-c2nc(Nc3ccncn3)c3c(C)csc3n2)n1
IC50 (Cytochrome P450 2D6 (CYP2D6, Homo sapiens, UniProt P10635); inhibitor): 3.5 µM

N#Cc1ccc(NC(=O)c2cccnc2)cc1Cl
IC50 (EGFR (Homo sapiens, UniProt P00533); kinase activity, inhibitor, luminescence; limit value): < 10 µM

CC[C@@H](C)[C@@H](NC(=O)[C@@H](CCCCN)NC(=O)[C@@H](CC(C)C)NC(=O)[C@H](N)[C@H](C)O)C(=O)N[C@@H](C(=O)N[C@H](Cc1c[nH]c2ccccc12)C(=O)N[C@H](CS)C(=O)O)C(C)C
IC50 (Microtubule-associated protein tau, K18 fragment, monomeric (MAPT, Homo sapiens, UniProt P10636); tau K18 aggregation, inhibitor, thioflavin T fluorescence; pH 7.4, 37 °C, with: heparin 15 µM): 12.1 ± 0.3 µM

O=C(COc1ccc(Sc2ccc(OCC(=O)N/N=C/c3cccc4ccccc34)cc2)cc1)N/N=C/c1cccc2ccccc12
IC50 (Cholinesterase (BCHE, Equus caballus, UniProt P81908); enzyme activity, inhibitor, Ellman): 117 µM

CC(C)[C@H](NC(=O)c1ccc(CCc2nc3c(c(=O)[nH]2)CCC3)cc1)C(=O)NC1CNC1
IC50 (MMP1; enzyme activity, inhibitor): > 5 µM

CC(=O)Nc1ccc2ccn(-c3cc(NC4CCC4)n4ncc(C#N)c4n3)c2c1
IC50 (CSNK2A2 (Homo sapiens, UniProt P19784); target engagement in cells, BRET): 0.01 µM

CCCCCc1cc(O)c2c(c1)OC(C)(C)C1CCC(C(=O)OC3OC(C(=O)O)C(O)C(O)C3O)=CC21 (centres unmarked)
IC50 (Cytochrome P450 2B6 (CYP2B6, Homo sapiens, UniProt P20813); enzyme activity, inhibitor; human, liver microsomes; pH 7.4): 5.3 µM

CC[C@H](C)[C@H](NC(=O)[C@@H](NC(=O)[C@@H](NC(=O)[C@@H](N)CCCCN)[C@@H](C)CC)[C@@H](C)CC)C(=O)N[C@@H](Cc1ccc(O)cc1)C(=O)N[C@@H](CC(N)=O)C(=O)O
IC50 (ACE (Oryctolagus cuniculus, UniProt P12822); enzyme activity, inhibitor): 58.7 µM

C[C@@H]1C(=O)C=C2[C@H]1CN(C)C[C@@H]2C
IC50 (MAL12; enzyme activity, inhibitor): 143 µM

For quick reference, copied from above:
CCCC[C@H](NC(=O)[C@H](C)NC(=O)[C@H](CCC(=O)O)NC(=O)[C@H](Cc1ccccc1)NC[C@H](C)NC(=O)[C@@H](NC(=O)[C@@H](N)CCCNC(=N)N)C(C)C)C(=O)O
IC50 (Gag-Pol polyprotein, protease (gag-pol, Human immunodeficiency virus 1, UniProt P12497); enzyme activity, inhibitor, FRET; NL4-3 wild type): > 1 µM

C=CC1C(OC2OC(CO)C(O)C(O)C2O)OC=C2C(=O)OCCC21 (centres unmarked)
IC50 (MAL12; enzyme activity, inhibitor, absorbance): > 100 µM

CC(C)C[C@@H]1NC(=O)[C@H](CCCNC(=N)N)NC(=O)[C@H](CCCCN)NC(=O)[C@H](CC(=O)O)NC(=O)[C@H](CCCCN)NC(=O)[C@@H](CO)NC1=O
IC50 (MMP2 (Homo sapiens, UniProt P08253); enzyme activity, inhibitor, fluorescence): > 10 µM

CC(C)[C@H](NC(=O)c1ccc(CNc2nc3c(c(=O)[nH]2)CCC3)cc1)C(=O)NC1COC1
IC50 (MMP1; enzyme activity, inhibitor): > 5 µM

CC[C@H](C)[C@H](NC(=O)[C@H](Cc1c[nH]cn1)NC(=O)[C@H](CC(C)C)NC(=O)[C@H](Cc1ccc(O)cc1)NC(=O)[C@H](Cc1ccc(O)cc1)NC(=O)[C@H](Cc1ccccc1)NC(=O)[C@H](CC(=O)O)NC(=O)[C@H](CS)NC(=O)[C@@H](N)Cc1ccccc1)C(=O)O
IC50 (APOBEC3G (Homo sapiens, UniProt Q9HC16); deamination activity, inhibitor, PCR/StuI restriction; pH 7.4, 37 °C, with: ssDNA substrate 1 fmol/µL): > 100 µM
